Results gathered from unrelated publications.
Each line is one published result; not all experiments were run side by side. “And” joins repeats or separate records; there may be more than shown. ± marks the error that the study gave.
HLA class I histocompatibility antigen, A alpha chain allele A*01:01: HLA class I histocompatibility antigen, A alpha chain, allele A*01:01 (Homo sapiens, UniProt P04439)
HLA class I histocompatibility antigen, A alpha chain allele A*02:01: HLA class I histocompatibility antigen, A alpha chain, allele A*02:01 (Homo sapiens, UniProt P04439)
SCRIB PDZ3 domain: Protein scribble homolog, PDZ3 domain (SCRIB, Homo sapiens, UniProt Q14160)
Chain of UniProt Q64663 (whole entry, unmodified, looked up): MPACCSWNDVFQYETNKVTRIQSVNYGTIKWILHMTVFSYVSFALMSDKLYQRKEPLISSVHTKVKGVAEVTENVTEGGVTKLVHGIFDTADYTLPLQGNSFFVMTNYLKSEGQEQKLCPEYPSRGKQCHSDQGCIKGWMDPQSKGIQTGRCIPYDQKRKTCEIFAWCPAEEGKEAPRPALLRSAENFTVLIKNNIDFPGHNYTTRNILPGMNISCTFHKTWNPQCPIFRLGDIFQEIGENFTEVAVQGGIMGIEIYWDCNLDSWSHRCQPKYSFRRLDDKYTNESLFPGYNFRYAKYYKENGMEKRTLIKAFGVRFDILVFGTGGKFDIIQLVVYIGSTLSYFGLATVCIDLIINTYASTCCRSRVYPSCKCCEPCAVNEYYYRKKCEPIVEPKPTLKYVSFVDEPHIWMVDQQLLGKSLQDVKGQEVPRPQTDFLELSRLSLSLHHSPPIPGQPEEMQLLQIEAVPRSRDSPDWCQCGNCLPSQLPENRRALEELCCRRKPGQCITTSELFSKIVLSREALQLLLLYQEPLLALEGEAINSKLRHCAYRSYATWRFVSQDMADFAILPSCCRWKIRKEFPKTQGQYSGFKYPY
Chain of UniProt P48067 (whole entry, looked up): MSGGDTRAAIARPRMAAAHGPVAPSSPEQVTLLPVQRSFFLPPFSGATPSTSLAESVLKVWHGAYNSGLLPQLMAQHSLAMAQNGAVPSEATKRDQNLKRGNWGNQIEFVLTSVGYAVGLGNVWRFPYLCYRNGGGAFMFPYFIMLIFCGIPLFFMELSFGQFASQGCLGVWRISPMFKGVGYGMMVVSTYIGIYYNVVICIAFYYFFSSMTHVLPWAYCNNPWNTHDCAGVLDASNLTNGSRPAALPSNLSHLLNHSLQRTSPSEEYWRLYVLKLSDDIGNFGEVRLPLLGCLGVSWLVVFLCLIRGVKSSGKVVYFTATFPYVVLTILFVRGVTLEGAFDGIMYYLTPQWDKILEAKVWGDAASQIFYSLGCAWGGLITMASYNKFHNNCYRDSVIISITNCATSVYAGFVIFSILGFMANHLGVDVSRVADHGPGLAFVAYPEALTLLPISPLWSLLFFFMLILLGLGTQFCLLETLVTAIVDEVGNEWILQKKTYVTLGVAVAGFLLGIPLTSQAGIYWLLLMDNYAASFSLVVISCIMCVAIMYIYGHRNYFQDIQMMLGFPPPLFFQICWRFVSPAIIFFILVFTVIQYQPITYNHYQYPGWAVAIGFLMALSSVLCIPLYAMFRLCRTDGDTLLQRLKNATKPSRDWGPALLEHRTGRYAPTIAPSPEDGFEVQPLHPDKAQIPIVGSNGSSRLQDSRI
Chain of UniProt Q14160 (whole entry, looked up): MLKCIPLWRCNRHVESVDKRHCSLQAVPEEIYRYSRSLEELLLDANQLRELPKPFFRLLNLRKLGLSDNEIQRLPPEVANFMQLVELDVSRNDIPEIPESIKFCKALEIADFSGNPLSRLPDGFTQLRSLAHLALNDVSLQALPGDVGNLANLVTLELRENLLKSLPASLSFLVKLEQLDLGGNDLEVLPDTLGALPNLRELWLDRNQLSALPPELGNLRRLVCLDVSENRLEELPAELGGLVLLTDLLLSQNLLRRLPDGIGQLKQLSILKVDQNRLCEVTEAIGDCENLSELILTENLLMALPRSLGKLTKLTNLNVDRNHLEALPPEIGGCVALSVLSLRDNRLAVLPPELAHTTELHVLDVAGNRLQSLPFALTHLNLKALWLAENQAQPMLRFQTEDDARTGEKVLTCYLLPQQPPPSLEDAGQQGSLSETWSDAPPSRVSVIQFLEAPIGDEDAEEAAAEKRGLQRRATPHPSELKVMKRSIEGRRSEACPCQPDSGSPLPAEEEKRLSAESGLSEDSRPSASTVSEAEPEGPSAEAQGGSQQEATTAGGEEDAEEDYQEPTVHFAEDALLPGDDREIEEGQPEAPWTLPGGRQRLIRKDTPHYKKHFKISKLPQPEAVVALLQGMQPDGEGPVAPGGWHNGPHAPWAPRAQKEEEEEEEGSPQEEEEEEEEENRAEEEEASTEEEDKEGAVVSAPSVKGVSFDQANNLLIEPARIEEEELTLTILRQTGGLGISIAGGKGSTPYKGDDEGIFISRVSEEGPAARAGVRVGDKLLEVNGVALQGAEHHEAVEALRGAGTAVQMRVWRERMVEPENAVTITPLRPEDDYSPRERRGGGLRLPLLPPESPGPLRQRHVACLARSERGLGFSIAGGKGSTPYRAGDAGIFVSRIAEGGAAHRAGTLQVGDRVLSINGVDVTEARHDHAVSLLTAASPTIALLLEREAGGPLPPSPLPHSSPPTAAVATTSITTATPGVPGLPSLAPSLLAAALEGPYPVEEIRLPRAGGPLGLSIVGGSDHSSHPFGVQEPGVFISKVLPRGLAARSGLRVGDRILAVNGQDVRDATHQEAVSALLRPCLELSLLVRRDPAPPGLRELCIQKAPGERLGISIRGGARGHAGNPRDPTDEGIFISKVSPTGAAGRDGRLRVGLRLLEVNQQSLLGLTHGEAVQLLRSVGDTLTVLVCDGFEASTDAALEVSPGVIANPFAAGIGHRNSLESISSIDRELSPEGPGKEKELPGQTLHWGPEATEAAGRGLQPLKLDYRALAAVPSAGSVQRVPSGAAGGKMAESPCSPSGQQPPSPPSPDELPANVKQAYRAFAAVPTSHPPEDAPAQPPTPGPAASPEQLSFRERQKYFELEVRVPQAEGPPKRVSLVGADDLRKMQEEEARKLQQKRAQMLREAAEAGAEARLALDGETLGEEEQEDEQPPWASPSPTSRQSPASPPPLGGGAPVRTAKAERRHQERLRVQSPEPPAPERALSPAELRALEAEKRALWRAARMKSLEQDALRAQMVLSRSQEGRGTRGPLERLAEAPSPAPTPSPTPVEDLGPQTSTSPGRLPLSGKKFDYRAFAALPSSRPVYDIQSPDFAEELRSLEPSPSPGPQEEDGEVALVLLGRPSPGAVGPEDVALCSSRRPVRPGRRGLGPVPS
Chain of UniProt Q5ANA3 (whole entry, looked up): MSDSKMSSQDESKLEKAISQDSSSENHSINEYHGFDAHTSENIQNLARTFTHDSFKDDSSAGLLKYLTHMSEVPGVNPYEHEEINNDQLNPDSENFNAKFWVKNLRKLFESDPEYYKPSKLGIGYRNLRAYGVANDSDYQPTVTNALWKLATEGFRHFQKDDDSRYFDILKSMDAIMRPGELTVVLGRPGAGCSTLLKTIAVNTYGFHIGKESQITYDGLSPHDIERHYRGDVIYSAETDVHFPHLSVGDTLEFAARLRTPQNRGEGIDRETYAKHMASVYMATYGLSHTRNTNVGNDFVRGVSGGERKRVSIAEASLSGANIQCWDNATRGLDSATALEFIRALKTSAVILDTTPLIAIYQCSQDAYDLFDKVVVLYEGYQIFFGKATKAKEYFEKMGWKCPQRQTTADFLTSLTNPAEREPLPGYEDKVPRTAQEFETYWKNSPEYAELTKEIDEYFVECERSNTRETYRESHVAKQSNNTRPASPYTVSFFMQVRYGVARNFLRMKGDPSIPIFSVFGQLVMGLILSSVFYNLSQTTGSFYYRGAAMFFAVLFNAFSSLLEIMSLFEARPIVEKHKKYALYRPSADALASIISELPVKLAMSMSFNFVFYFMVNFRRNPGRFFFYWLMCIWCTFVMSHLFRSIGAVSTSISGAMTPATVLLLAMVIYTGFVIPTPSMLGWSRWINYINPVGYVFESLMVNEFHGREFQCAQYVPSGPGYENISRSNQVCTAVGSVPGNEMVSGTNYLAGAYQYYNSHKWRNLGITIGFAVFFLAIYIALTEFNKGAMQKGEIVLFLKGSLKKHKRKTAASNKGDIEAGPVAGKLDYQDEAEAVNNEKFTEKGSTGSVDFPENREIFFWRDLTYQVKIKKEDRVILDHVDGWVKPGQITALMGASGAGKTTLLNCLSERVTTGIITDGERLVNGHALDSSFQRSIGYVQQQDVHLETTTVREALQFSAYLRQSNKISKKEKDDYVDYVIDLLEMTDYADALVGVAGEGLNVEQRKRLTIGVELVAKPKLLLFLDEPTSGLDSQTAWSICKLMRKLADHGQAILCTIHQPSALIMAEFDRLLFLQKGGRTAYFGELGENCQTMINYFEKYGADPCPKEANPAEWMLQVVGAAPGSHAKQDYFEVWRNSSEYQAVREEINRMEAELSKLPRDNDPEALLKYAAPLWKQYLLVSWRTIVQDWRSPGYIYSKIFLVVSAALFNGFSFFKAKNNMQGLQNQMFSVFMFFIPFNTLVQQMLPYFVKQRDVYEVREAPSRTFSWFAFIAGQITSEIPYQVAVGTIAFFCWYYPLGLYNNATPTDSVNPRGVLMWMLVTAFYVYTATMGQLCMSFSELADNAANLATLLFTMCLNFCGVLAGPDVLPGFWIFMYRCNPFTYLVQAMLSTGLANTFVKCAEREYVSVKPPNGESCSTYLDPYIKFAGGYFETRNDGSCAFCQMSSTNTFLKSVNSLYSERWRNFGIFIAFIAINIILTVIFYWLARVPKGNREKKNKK

`PFGSLLDY` gave a binding score of 0.1% (HLA class I histocompatibility antigen, A alpha chain allele A*01:01; conformational ELISA; peptide; concentration not given; reference: positive control peptide, direction not given).
`BzATP` has a normalized current of 0.9 and 0.922 and 0.91 (P2X purinoceptor 7 (P2rx7, Rattus norvegicus, UniProt Q64663, I214A/R125A); ion current, agonist, two-electrode voltage clamp; Xenopus laevis oocytes; 100 µM; reference: highest concentration response).
For `GLAFVPLQI`, the relative affinity was 12.6 (HLA class I histocompatibility antigen, A alpha chain allele A*02:01; HLA-A2 stabilization, peptide titration; peptide, T2; 20 h, 37 °C, with: human β2-microglobulin 100 ng/mL; reference: HIVpol reference peptide, lower is stronger).
With `CTIL` the Km was 6.1 ± 1.6 µM (Candida albicans protein farnesyltransferase; substrate, dansyl fluorescence kinetics; peptide; with: 4 µM C15-Alk).
For `LTSTVQLIM`, the binding score was 80.9% (HLA class I histocompatibility antigen, A alpha chain allele A*01:01; conformational ELISA; peptide; concentration not given; reference: positive control peptide, direction not given).
`GSGAGKETSF` has a binding intensity of 0.0399 (human MAGI1-3/6 PDZ construct (MBP fusion); automated holdup; peptide, purified PDZ protein; concentration not given, unit not given; reference: biotin control resin, higher = stronger binding).
`RMARDPQRF` gave a binding of 112% (human HLA-A24 (A*2401); peptide-MHC binding, iTopia initial binding; peptide, plate-bound HLA heavy chain; 11 µM, 18 h, 21 °C; reference: allele-matched positive control peptide).
With `QLIMQLMPFG` the binding score was 8.5% (HLA class I histocompatibility antigen, A alpha chain allele A*02:01; conformational ELISA; peptide; concentration not given; reference: positive control peptide, direction not given).
For `GSGAGSETVV`, the binding intensity was 0.143 (human MAGI1-3/6 PDZ construct (MBP fusion); automated holdup; peptide, crude extract; concentration not given, uncorrected, unit not given; reference: biotin control resin, higher = stronger binding).
For `TQSKNGPVPV`, the Kd was 100 µM (SCRIB PDZ3 domain; binding, fluorescence polarization; peptide, solution; Scribble PDZ3 domain).
`ITDFGRAKLL` gave a binding score of 6.4% (HLA class I histocompatibility antigen, A alpha chain, allele A*24:02 (Homo sapiens, UniProt P04439); conformational ELISA; peptide; concentration not given; reference: positive control peptide, direction not given).
With `milbemycin oxime` the fraction bound was 80.9% (CDR1 (Candida albicans, UniProt Q5ANA3); binding, microscale thermophoresis; 625 nM).
With `IPRGDPPWREL` the Kd was 100 µM (SCRIB PDZ3 domain; binding, fluorescence polarization; peptide, solution; Scribble PDZ3 domain).
For `methyl-β-cyclodextrin`, “glycine uptake rate” read 37.4 a.u. and 25.1 a.u. and 24 a.u. and 37.3 a.u. and 38.2 a.u. (Sodium- and chloride-dependent glycine transporter 1 (SLC6A9, Homo sapiens, UniProt P48067); transport activity, [3H]glycine uptake; 2.5 mg/mL, 1 min, with: glycine 75 µM; higher = more transport).
The selectivity ratio of `MTVCNASQRQAHAQATAVSL` is reported as 0.67 ± 0.31 (H2347; phage binding; peptide; reference: targeting over control phage).
`11-deoxycorticosterone` — result for “rate constant k-2”: 1.36 ± 0.139 s⁻¹ (CYP11B2 (human); substrate binding, stopped-flow global kinetic fitting; purified enzyme; 3-state induced fit model, with: 10-fold excess adrenodoxin).
With `TVQLIMQLM` the binding score was 0.2% (HLA class I histocompatibility antigen, A alpha chain allele A*01:01; conformational ELISA; peptide; concentration not given; reference: positive control peptide, direction not given).
`6-carboxyfluorescein` has an uptake of 48.8% and 40.1% and 51.8% (Solute carrier organic anion transporter family member 2A1 (SLCO2A1, Homo sapiens, UniProt Q92959, C448A); compound uptake, substrate; HEK293F expressing SLCO2A1 C448A; 50 µM; reference: wild type).
